Measured values of several laboratories.
Every numbered part comes from another study and shows a few of its results, in no order.

Series 1
Target: RING finger protein unkempt homolog, zinc fingers 1-6, GST-SBP tag (UNK, Homo sapiens, UniProt Q9C0B0, residues 30-357)
Method: RNA Bind-n-Seq
Form: RNA
Medium: in vitro
Tested at: not given
Notes: RNA with constant flanks, ends assumed
Relative to: input RNA pool
Reading: higher = stronger binding
All sequences stand within: GGGAGUUCUACAGUCCGACGAUC … CAACAGAGGAUUGAGCAUCA
Construct (chain): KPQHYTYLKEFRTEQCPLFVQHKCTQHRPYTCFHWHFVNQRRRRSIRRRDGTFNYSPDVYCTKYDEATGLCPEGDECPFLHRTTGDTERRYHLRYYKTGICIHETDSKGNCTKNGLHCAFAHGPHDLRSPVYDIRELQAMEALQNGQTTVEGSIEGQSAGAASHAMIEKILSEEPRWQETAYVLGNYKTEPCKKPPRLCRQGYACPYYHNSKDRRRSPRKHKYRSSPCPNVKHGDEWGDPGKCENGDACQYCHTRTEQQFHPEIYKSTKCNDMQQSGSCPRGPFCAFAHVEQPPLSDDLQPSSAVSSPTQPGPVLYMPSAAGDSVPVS
Sequence	bound/input enrichment [ratio]
GAAGAUGAUGAAGAAUCUGGACGAUUACGUUUCAAAACUGAAAGGAAAGAAGGAACAAUUAUCCGGCUCUCAGAUGUAACUAGAGAGAGAAGGAACAUUCCAGAAACUUUGGAGCUUUCA	0.201
AUACCUUCCCAAAUUGGUAACCUGGAGGCCUUGAGAGACCUUAAUGUAAGAAGAAAUCACCCCGUACAUUUGCCUGAAGAGCUGGCGGAGUUGCCUUUGAUACGGUUAGACUUCUCAUGC	0.262
UUUCAGCAACUGGUCAAUUUUUCAGAAGGAGGACCGGGCUCUAAUUCCACUGGCAGUGAAGCCGCAUCAAUGUCCUCUCAACUUCCAGAUACACCUAACAGCAUGGUAGCCAGUCCUAUU	0.203
GCUGAAGUACCACACAUCAGAGAGAGAGUGAUGAGAGAGGGGCGCCACCUGUGCUUCCAGUCCGUAAGCCCAUUGGGAGUAGCCAUUUCUACUCUGAGUUACAUCAACAGGACAAAUCAG	0.0987
CUUUUAUGCGACCAUUGUUGCAGUGGUCGGGCUUCAUGUGGUGCUGGCAAUUUUCGUCUUCACCGUGUGGAAGGAGGGCUUGCCCCAGUGGCGGGAAAACAAAAACGAAUAGAGCAGCUU	0.347
CUGUGUAAUGAAAAACUAUUAAAAAAGGCUCGUAUACAUCCAUUUCAUAUUUUGAUCGCAUCCGAAACUUACAAGACAGGUCAUGGUCUCAGAGGGAAACUGAAGUGGCGCCCUGAUGAA	0.292
CGGCUAUUUGGUGAAGUCACCAGGCCUACUAAUUCCAAGUCUAUGAAAGUGGUGAAACUGUUCCGUGAACUGCCCUUGGCCAAGAAGAAGGAGACUUAUGAUUGGUAUCCAAAUCACCAC	0.132
GAAGAAGGCUGCUUUAUGUUUAUUUUUCAAGACUUUAAAAAUAUUUUUUGGUUGUAUUGCACCCGGAAAUCUCUCCCACCUCUCCCUUUUCUCUUUCUUUCCCUAUACAAAAUAAAAGGC	1.42
GACCAAACCCAGAACUUUUUUUUUUUUUUUUUUGGUUUUUCAAGACAAGAUUUCUCUGUGCCGCUCUGGCUGUCCUGGAACCCACUGUGUAUAUGACUAGGCUGAACUCCAACUCAGAGA	1.32
AAGGAUGCAAGGUCCGAUUCCUGGCAGCUCGUGCAGACCCAGUGCCUACCUUCCUCUUCCAACCGCAUUGGCUGCUCCCCGUUCCAGUUCCAUGAAGCCACCAUUUAUAAUGCUGUCAAC	0.116
CUUGGAGAAGGUCCAAAAGCUUCUUUGCAUGUGUCCAGUGGAUUUCCAUGGGAUCUUCCAGUCCGAUGAAAGACGGAGAGAUGCAGUGAUUGCAUUGGGCAUUUUUCUGAUUGAAUCUGA	0.113

Series 2
Target: Interferon regulatory factor 7, full length, phosphomimetic (IRF7, Homo sapiens, UniProt Q92985, residues 1-503, S101K/S471D/S472D/S475D/S476D/S477D/S483D/S484D/S487D)
Method: protein-binding microarray
Form: double-stranded DNA, one strand shown
Medium: in vitro
Tested at: 250 nM
Notes: 60-bp whole probe
With: salmon DNA 0.4 mg/ml
Relative to: random background probes
Reading: higher = stronger binding
All sequences stand within: GCCTAGCAC … GTCTTGATTCGCTTGACGCTGCTG
Target sequence (chain): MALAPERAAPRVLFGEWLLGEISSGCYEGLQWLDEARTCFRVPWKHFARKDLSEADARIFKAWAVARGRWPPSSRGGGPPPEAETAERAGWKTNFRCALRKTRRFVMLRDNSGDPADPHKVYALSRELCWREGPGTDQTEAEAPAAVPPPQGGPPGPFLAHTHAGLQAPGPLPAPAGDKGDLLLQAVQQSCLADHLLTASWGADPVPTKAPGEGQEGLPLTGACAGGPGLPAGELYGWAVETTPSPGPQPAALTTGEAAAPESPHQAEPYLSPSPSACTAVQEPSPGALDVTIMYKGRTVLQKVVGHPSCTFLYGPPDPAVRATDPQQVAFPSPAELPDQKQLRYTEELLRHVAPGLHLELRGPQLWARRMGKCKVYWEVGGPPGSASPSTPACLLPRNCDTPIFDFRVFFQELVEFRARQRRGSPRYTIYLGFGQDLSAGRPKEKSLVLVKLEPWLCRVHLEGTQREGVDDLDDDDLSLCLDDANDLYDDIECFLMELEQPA
Sequence	log fluorescence [z-score]
TTAGGTATCGGTCTCCGTTAGTGCTAG	1.39
GATCCTTCCCCTCTAGGTTCGTGCTAG	1.62
TCAAGCATTACTTTAGGACTGTGCTAG	-0.43
GACTTTTTACCTGTGGTGTAGTGCTAG	0.301
TATAGCTGATACATATAGCCGTGCTAG	-0.212
GGTTGTTTCTAATATTCTGCTGTGCTA	0.464
GACGAAATGAGACTGGAGACGTGCTAG	0.0347
TCACCTTTATGTCCTGTACTGTGCTAG	0.475
TTAGAACAGGGGACTGGATTAGTGCTA	-0.291
GACGATTTCAGACTGGAGACGTGCTAG	0.109
TTGCAGATGACGAAACTGAAGTGCTAG	-0.326
TAAGGTCTCGGACTGGGTTAGTGCTAG	0.364
TTAGGACTGAGTATCGGTTAGTGCTAG	0.871
TCATCTTCCCCTCTCTTACTGTGCTAG	1.14
GAGGGACTGGACTATCGGGACGTGCTA	-0.814
GAGAGAGCTTGTCTGCAGCCGTGCTAG	-1.28
AAGGATTTCAGTTTCTCTTTGTGCTAG	5.88
TTAGGTATCGACTAACGGTTAGTGCTA	0.362
TCACCTCTAGGTTCTCTGACTGTGCTA	-0.163
TTATGTTTCCTTTCCCTTTAGTGCTAG	2.96
GACGGTCCCGGACTGGGGACGTGCTAG	-0.231
GACGAACTGAGACTGAAGACGTGCTAG	0.15
TTAGAACTGGGTATCGATTAGTGCTAG	0.608
TCACCCTTTGCTTTCCTACTGTGCTAG	0.892
TAAGATTTCAGTTCCGATTAGTGCTAG	2.29

Series 3
Target: Prothrombin, mature alpha-thrombin (F2, Homo sapiens, UniProt P00734)
Method: aptamer microarray, sandwich
Form: DNA with 2'F-ANA
Medium: in vitro
Tested at: 200 nM
Notes: whole 15-mer aptamer, many near background
With: Cy3 exosite-II aptamer, 400 nM
Reading: higher = stronger binding
Sequence: GGTTGGTGTGGTTGG
Modification	mean fluorescence intensity [a.u.]
2'F-ANA at 2 5 6 7 8 10 12 15	57.3
2'F-ANA at 5 6 11 15	55.3
2'F-ANA at 1 3 4 6 11 14 15	64.7
2'F-ANA at 3 4 5 6 7 9 10 12 13 14 15	51.9
2'F-ANA at 1 2 4 7 10 14 15	76.3
2'F-ANA at 3 5 6 7 8 14 15	56.5
2'F-ANA at 1 3 5 8 9 12 14 15	47.7
2'F-ANA at 2 4 6 8 11 12 13 14	94.7
2'F-ANA at 2 3 4 8 9 10 12 14	192
2'F-ANA at 2 7 12 13 14	189
2'F-ANA at 2 5 8 9 10 11 13 15	48.9
2'F-ANA at 1 3 4 5 11 13 15	48.4
2'F-ANA at 2 5 10 11 12 13 15	62
2'F-ANA at 2 3 5 6 7 10 12 14 15	48.8
2'F-ANA at 1 2 3 6 8 10 11 15	63.1
2'F-ANA at 1 3 5 6 8 9 11 14	45.8
2'F-ANA at 3 7 8 9 10 11 13 14	378
2'F-ANA at 3 5 6 7 8 10 11 14 15	51.5
2'F-ANA at 1 5 6 8 10 14 15	58.5
2'F-ANA at 2 3 4 7 9 10 11 12 13 14	156
2'F-ANA at 3 7 10 11 14 15	423
2'F-ANA at 1 3 5 6 9 11 12 13 15	73
2'F-ANA at 2 3 4 6 8 11 13	432
2'F-ANA at 4 6 7 8 9 10 11 12 13	84.2
2'F-ANA at 5 6 7 10 11 13 14	46.2

Series 4
Target: RNA binding protein fox-1 homolog 2, RRM domain, GST-SBP tag (RBFOX2, Homo sapiens, UniProt O43251-10, residues 100-194)
Method: RNA Bind-n-Seq
Form: RNA
Medium: in vitro
Tested at: 365 nM
Notes: natural RNA segment, single round, ends assumed
Relative to: no-protein control
Reading: higher = stronger binding
All sequences stand within: GGGAGUUCUACAGUCCGACGAUC … UGGAAUUCUCGGGUGCCAA
Target sequence (chain): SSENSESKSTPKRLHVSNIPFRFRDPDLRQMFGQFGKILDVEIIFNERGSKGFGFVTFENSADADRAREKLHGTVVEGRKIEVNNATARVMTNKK
Sequence	RBNS enrichment (R)
CAACUUCUGGAUCGCAACCCCUUUGGGGGUGGGUAGGUCACAUAACAGAUAUGCUGACUAACAGAGAUUGCCAUUAUGAUUUAUAACAAUAUCAAAUGUAUAGUUAUGAA	0.208
UGGAGAUAAACAGCUCCCAUCCCUGGGUAAUGGAUGGUAAGAUGAUGGAGAUUCCUAAGAUUGGUGGAGUUGGGCAAUGCAUAGCCAUCUGACUCCUUCAGGGUGCUCUU	0.835
CGAUUUUGAGUCCGAAUAAAGAAAGACCUAGUAACAGAUAGUUUUUUUUUGUUCAUUUUCUUCUACCAAGUAGAGGUUUAUGCCCUCAGAACUAAACUAGUAAAAAUAUC	0.37
AGGAUGGGCGGGGAUUGGCCGGGGCAGGUUGCCUUUACUAGCCAUUGGCCUGUGUCCGCCACUUGGAGUGCCCCAAAGGGGGCUUCUAACCAUUCCUUCCUCCAUCAGCC	0.235
AGGGAGCAGCUGAUUUUUUCAUUUUCUUGCCACAAGGCAUGUUGACAGAAGAAUAAAAUUCUUUGUAGACAGUCAUCUUCAAAUGUACUGUCCGCCCCUUGCCUGGAGAC	2.5
CUGAUCUGUUGAUAAGGCACUAUACACCAUGCUGGUGUGUUCUGUAGCCUUGUGCCCAUUAGGUAACUGAACAAUGAUUCAGCUCUUAGAAUACCUAGGAAGACAGCAAG	0.245
CCAGCUUCAGUGUGCAGGCUCUGAGGCUGCCCAGGACGGGAAAGUCCAAGGAAGGGGCCUGGUGGUGCUCCACUUGCAGUUCUUUAAAGAAUGCUGCUUUUUAUUCUCCU	0.391
GUGUGUAGGCUCCCUUCUCACCCCAGGCACCUAGGAGCCCUCUUGCCAGUUCCUCUCUCGCUCUGUUUCCAGACCUGUCUCUCUCUCUGUCCUGGCAGCUUCUCUGAGGU	1
GUUCACUUUAAUUUAUUUAUGCUGUAAGUUAUUUUUGCUUCCUUCUCCUGGACCCACUUCCAGUCCCGUUUUGCAUUCCCCUUUGGAUUUUGCUUUGGCUAUUUUUUGUU	1.1
CCUGAUAGGGGAGGCAGACGGCCUAGACAGUCUCAUUCUGCCUAUCUUCCACAAGCCUGCCUGCCUGCCUCUCUCUUGCUGCUUCUCCAGCCGUUAACCACAUCUGCCAC	2.62
CUGCGUAUCUUUGACUUAAUUGGCACAUGACUUUUUCAAGCAGCCAUUCAUUCAGAGGUUUGUUUUCUCUCAGUCCUUUUGCUACAUUCACUUUCUUUUCAAAGAAAUGU	0.459
ACACUUAAUUUUCUAUUGUAAAAAGUAAUAAUAUACAGAGUCUAACAGAAGGUCCUGUUGGGUUUGUUGUUUUUGAGGCUGCCGAAUGGUUUUGGAAUGCAGGGUCAGCC	3.44
